Published values of several laboratories.
A part holds a random share of what one study measured.
Sequence of UniProt P11388 (whole entry, looked up): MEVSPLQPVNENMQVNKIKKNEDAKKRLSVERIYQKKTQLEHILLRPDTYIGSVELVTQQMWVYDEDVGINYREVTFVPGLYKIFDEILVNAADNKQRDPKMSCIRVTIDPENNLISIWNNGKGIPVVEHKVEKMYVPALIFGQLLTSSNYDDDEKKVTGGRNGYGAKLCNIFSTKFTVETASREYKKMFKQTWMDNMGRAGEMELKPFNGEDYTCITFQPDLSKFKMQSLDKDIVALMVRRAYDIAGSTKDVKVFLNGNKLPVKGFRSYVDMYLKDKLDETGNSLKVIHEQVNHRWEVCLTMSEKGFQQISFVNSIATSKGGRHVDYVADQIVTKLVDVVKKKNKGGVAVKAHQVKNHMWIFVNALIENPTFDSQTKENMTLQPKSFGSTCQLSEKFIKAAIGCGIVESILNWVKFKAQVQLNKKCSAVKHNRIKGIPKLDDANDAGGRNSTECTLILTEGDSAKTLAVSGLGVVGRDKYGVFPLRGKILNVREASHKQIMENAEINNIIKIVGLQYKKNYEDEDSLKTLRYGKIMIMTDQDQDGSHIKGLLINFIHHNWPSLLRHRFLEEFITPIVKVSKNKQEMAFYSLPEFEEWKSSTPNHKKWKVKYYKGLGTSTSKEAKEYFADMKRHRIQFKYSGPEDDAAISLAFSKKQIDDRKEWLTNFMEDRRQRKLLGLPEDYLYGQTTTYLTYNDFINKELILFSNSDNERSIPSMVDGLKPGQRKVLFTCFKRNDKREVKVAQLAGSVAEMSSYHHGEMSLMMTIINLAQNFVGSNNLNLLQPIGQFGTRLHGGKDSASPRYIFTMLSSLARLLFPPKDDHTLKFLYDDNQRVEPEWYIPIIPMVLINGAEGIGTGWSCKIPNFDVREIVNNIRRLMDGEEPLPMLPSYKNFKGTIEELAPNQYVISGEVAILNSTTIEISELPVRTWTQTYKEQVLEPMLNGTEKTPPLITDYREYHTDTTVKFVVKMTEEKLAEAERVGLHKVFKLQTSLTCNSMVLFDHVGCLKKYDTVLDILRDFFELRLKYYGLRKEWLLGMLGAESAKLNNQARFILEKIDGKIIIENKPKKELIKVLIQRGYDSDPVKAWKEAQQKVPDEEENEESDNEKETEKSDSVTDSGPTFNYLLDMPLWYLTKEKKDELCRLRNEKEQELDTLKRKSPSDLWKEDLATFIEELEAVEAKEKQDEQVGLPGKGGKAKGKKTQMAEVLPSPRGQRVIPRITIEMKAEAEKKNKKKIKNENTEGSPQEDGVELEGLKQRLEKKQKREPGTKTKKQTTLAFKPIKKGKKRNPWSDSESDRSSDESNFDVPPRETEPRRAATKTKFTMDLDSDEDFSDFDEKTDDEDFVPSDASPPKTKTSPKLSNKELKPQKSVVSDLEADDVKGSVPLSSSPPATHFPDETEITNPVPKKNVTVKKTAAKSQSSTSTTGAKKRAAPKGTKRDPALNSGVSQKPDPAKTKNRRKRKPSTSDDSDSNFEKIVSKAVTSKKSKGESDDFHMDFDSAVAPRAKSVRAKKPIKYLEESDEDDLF

Series 1 — mode: inhibitor
Target: Replicase polyprotein 1ab, nsp14 (rep, Severe acute respiratory syndrome coronavirus 2, UniProt P0DTD1)
| SMILES | IC50 [nM] |
| --- | --- |
| Cc1c(C(=O)C(=O)N2CCn3nccc3C2)cc(C(=O)NCc2cccnc2N2CCCC2)n1C | > 6250 |
| Cc1c(S(=O)(=O)N2CCC(C)CC2)cc(C(=O)NCc2cccnc2N2CCCC2=O)n1C | 750 |
| Cc1c(S(=O)(=O)N2CCn3cncc3C2)cc(C(=O)NCc2c(F)ccnc2N2CCCC2)n1C | 0.23 |

Further values, each from its own experiment
| Compound | tested on | assay | test system | setting | scale | quantity | result |
| --- | --- | --- | --- | --- | --- | --- | --- |
| COC(=O)Nc1c(N)nc(-c2nn(Cc3ccccc3F)c3ncc(F)cc23)nc1N |  |  | healthy male humans, plasma | oral, 10 mg once daily, phase I DDI study, without sildenafil |  | AUC(0-24) at steady state | 6430 ng·h/mL |
| CC1COc2ccccc2N1C(=O)C(Cl)Cl (centres unmarked) | cytosolic carboxylesterase | substrate depletion | rhesus monkey, female, liver cytosol | 5 µM, pH 7.4, without glutathione |  | intrinsic clearance | 500 µL/min/mg |
| COc1cc([C@@H]2c3cc4c(cc3[C@@H](O[C@@H]3O[C@@H]5CO[C@@H](C)O[C@H]5[C@H](O)[C@H]3O)[C@H]3COC(=O)[C@H]23)OCO4)cc(OC)c1O | TOP2A (Homo sapiens, UniProt P11388) | DNA decatenation, inhibitor, gel-based decatenation |  | 31.5 µM |  | inhibition | 0% |
| N#CCC1CCN(c2nc(Nc3ccc(N4CCC(O)CC4)cc3)c3c(=O)[nH]ncc3n2)CC1 |  | vs placebo, Olink multiplex | human, serum | 40 mg, day 15, unit not given | baseline: placebo | GIF level difference | 1.35 |
| Fc1ccccc1Cc1nc(-c2nc(C(F)(F)F)n[nH]2)cn2ccnc12 |  | refers to: Headache | healthy humans | oral, 10 mg, fasted, single dose |  | subjects with adverse events | 7.1% |

For quick reference, copied from above (series 1):
| SMILES | IC50 [nM] |
| --- | --- |
| Cc1c(C(=O)C(=O)N2CCn3nccc3C2)cc(C(=O)NCc2cccnc2N2CCCC2)n1C | > 6250 |
